Assay results collected from several papers.
± gives the spread as reported.

Structure (SMILES)	target or system	assay	system	setting	endpoint	result
CN[C@](C)(C[18F])C(=O)O	SK-OV-3 tumour model		host not given, heart	30 min, tumour-bearing	tracer uptake	3.2 %ID/g
COc1cc(C(=O)NCCOCCOCCOCCNC(=O)c2ccc([18F])nc2)ccc1NC(=O)C1NC(CC(C)(C)C)C(C#N)(c2ccc(Cl)cc2F)C1c1cccc(Cl)c1F (stereo not shown)	SJSA-1 tumour model		host not given, liver	1 h, tumour-bearing	tracer uptake	1.63 %ID/g
CN(C)CC1CCCCC1(O)c1cccc(O)c1 (stereo not shown)	human P-glycoprotein		Caco-2 TC7 monolayer	100 µM, 3 h, apical pH 6.8, basolateral pH 7.4, with: cyclosporine A 10 µM	Papp B-to-A	20.6 ± 0.3 ×10⁻⁶ cm/s
C[C@@H](O)[C@H](NC(=O)[C@H](CCCNC(=N)N)NC(=O)[C@H](CCCNC(=N)N)NC(=O)[C@H](CCCNC(=N)N)NC(=O)[C@@H]1CCCN1C(=O)[C@@H](N)CO)C(=O)N1CCC[C@H]1C(=O)N[C@@H](CO)C(=O)N1CCC[C@H]1C(=O)N[C@@H](CCCNC(=N)N)C(=O)N[C@@H](CCCNC(=N)N)C(=O)N[C@@H](CCCNC(=N)N)C(=O)N[C@@H](CCCNC(=N)N)C(=O)N[C@@H](CO)C(=O)N[C@@H](CCC(N)=O)C(=O)N[C@@H](CO)C(=O)N1CCC[C@H]1C(=O)N[C@@H](CCCNC(=N)N)C(=O)N[C@@H](CCCNC(=N)N)C(=O)N[C@@H](CCCNC(=N)N)C(N)=O	SK-BR-3	cell viability, CellTiter-Blue		24 h, serum-free medium	IC50	> 100 µM
CNC(=O)c1cc(Oc2ccc(NC(=O)c3ccc(-c4cccc(COC(=O)CCC(=O)OC5OC6OC7(C)CCC8C(C)CCC(C5C)C68OO7)c4)cn3)cc2)ccn1 (stereo not shown)	Hep3B	cell growth or viability, MTT		72 h	IC50	5.35 µM
C[C@H]1C(OCCCCCCCC[P+](c2ccccc2)(c2ccccc2)c2ccccc2)O[C@@H]2O[C@@]3(C)CCC4[C@H](C)CCC1[C@]42OO3 (stereo partly shown)	OVCAR-3	cell growth or viability, MTT		72 h	IC50	0.0998 µM
CN(C)C(=O)c1cncc(N2Cc3cn(Cc4ccc(F)cc4)nc3C2)n1	HEK293 expressing GluA1 and GluA2	cell death, CellTox Green		24 h, with: glutamate, AMPA 10 µM	IC50	0.035 µM
Cc1nn(-c2ccccc2)c(O)c1C(c1cccs1)c1c(C)nn(-c2ccccc2)c1O	Ishikawa	cell growth or viability, MTT		48 h	IC50	> 40 µM
O=C1[O][Pt]2([OH])([OH])([NH]C3CCCCC3[NH]2)[O]C1=O (stereo not shown)	MDA-MB-157	cell growth or viability, resazurin		72 h	IC50	> 100 µM
N=C(N)NCCC[C@@H]1NC(=O)[C@H](CCCCNC(=O)CCOCCOCCOCCOCCNC(=O)CN2CCN(CC(=O)O)CCN(CC(=O)O)CCN(CC(=O)O)CC2)NC(=O)[C@@H](Cc2ccccc2)NC(=O)[C@H](CC(=O)O)NC(=O)CNC1=O [indium-111 labelled]			female athymic nude mice, liver	intravenous, 3 µCi, 4 h, U-87 MG glioma xenograft	tissue uptake	0.9 ± 0.15 %ID/g
Cc1cc(C)c(N2CCN(c3c(C)cc(C)cc3C)C2=[Se])c(C)c1.[Cl][Ag]	H157 spheroids	acid phosphatase		72 h, 3D spheroid	IC50	23.4 ± 4.2 µM
CC/C=C\C/C=C\C/C=C\C/C=C\C/C=C\C/C=C\CCC(=O)Nc1ccn(C2OC(CO)C(O)C2(F)F)c(=O)n1 (stereo not shown)	LOX IMVI	NCI-60 screen			CC50	77.9 µM
CC[C@H](C)[C@@H]1NC(=O)[C@H](CCCNC(=N)N)NC(=O)C[C@@H](c2cccc3ccccc23)NC(=O)[C@@H]2CSSC[C@H](NC(=O)C[C@@H](c3cccc4ccccc34)NC(=O)[C@H](CCCNC(=N)N)NC(=O)[C@@H]3CCCN3C(=O)[C@@H]3CCCN3C1=O)C(=O)N[C@@H](Cc1ccccc1)C(=O)N1CCC[C@H]1C(=O)N[C@@H](CC(=O)O)C(=O)N[C@@H](CC(=O)O)C(=O)N[C@@H](Cc1ccccc1)C(=O)N2	Calu-3	cell growth or viability, ATP luminescence		72 h	IC50	0.073 µM
COc1c(O)c(-c2c(O)c(OC)c(OC)c3c2ccc2cc(O)ccc23)c2c(c1OC)-c1ccc(O)cc1CC2	EA.hy 926	cell growth or viability, CCK-8		24 h	IC50	11.3 µM
C=C(C(=O)O)[C@@H]1CC[C@@]2(C)CCC(=O)C(C)=C2[C@H]1O	human Neutrophil	elastase release, inhibitor			IC50	> 10 µM
CCCC[C@@H]1NC(=O)COC[C@H]2CCCN2C(=O)[C@H](CCCCN)NC(=O)[C@H](CC(C)C)NC(=O)[C@H](CCCCN)NC(=O)[C@H](CC(C)C)NC(=O)[C@H](CCCCN)NC(=O)CN(S(C)(=O)=O)CCNC(=O)[C@H](Cc2c[nH]c3ccccc23)NC(=O)[C@H](C)NC(=O)[C@H](C(C)C)NC(=O)[C@H](C(C)C)NC1=O	NCI-H929	viability, TO-PRO-3 staining, flow cytometry			IC50	14.3 µM

Some of these lines once more:
Structure (SMILES)	target or system	assay	system	setting	endpoint	result
CC[C@H](C)[C@@H]1NC(=O)[C@H](CCCNC(=N)N)NC(=O)C[C@@H](c2cccc3ccccc23)NC(=O)[C@@H]2CSSC[C@H](NC(=O)C[C@@H](c3cccc4ccccc34)NC(=O)[C@H](CCCNC(=N)N)NC(=O)[C@@H]3CCCN3C(=O)[C@@H]3CCCN3C1=O)C(=O)N[C@@H](Cc1ccccc1)C(=O)N1CCC[C@H]1C(=O)N[C@@H](CC(=O)O)C(=O)N[C@@H](CC(=O)O)C(=O)N[C@@H](Cc1ccccc1)C(=O)N2	Calu-3	cell growth or viability, ATP luminescence		72 h	IC50	0.073 µM
Cc1nn(-c2ccccc2)c(O)c1C(c1cccs1)c1c(C)nn(-c2ccccc2)c1O	Ishikawa	cell growth or viability, MTT		48 h	IC50	> 40 µM
